# Experimental data of several laboratories.
# Every numbered part comes from another study and shows a few of its results, in no order. Changes are numbered by the printed parent chain.

# Study 1
# Target: PABPC1L2, full length, GST fusion (mouse, UniProt A0ABA7IW68)
# Technique: RNAcompete
# Molecule type: RNA
# Matrix: in vitro
# Tested at: 20 nM
# Notes: 7-mer, probes averaged, single round
# Baseline: mean of 7-mers
# Direction: higher = stronger binding
# Residues (chain): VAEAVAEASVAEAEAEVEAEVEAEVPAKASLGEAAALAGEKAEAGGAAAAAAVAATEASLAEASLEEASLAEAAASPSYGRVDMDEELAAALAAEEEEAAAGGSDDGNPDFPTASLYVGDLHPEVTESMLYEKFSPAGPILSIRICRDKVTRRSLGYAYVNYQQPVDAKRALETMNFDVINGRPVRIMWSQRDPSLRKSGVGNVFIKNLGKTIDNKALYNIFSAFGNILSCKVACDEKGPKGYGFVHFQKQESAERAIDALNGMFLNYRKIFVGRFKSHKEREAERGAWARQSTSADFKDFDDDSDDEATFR
Strand,7-mer Z-score
AGACGCU,-0.273
UAAGUGU,-0.235
CUUUGCU,-0.476
GUAAAUG,0.133
CUCAAAA,3.17
CGUGUAG,-0.17
GUUCGUU,-0.47
UGCAUGU,-0.142

# Study 2
# Target: Sal-like protein 4, full length isoform B (SALL4, Homo sapiens, UniProt Q9UJQ4-2, residues 1-616)
# Technique: universal PBM
# Molecule type: double-stranded DNA, one strand shown
# Matrix: in vitro
# Tested at: not given
# Notes: 8-mer, flanks averaged, mean of replicates
# Direction: higher = stronger binding
Strand,E-score
ACCTTGGC,-0.215
CCGTTCTA,0.0503
CAGCAATG,0.0458
ACAGAAAC,0.121
ATTCTAAA,0.281
CATGGTCC,-0.183
CTGCAGAC,-0.116
CTTTGAGA,0.0742

# Study 3
# Target: TAR DNA-binding protein 43, full length, His tag (TARDBP, Homo sapiens, UniProt Q13148, residues 1-414)
# Technique: RNA Bind-n-Seq
# Molecule type: RNA
# Matrix: in vitro
# Tested at: 20 nM
# Notes: 6-mer, flanks averaged, single round
# Together with: 150 mM KCl
# Baseline: input library
# Direction: higher = stronger binding
Strand,6-mer enrichment (R)
CCUCAG,0.668
UGUGUA,1.11
AGGUGG,3.53
GCCCAC,0.708
GGAAUU,0.872
UUUAAU,0.638
CGCAAC,0.685
UUCUUG,0.64

# Further values, each from its own experiment
# Starting sequence: viral docking peptide; YKVKRRLVFGADD; partner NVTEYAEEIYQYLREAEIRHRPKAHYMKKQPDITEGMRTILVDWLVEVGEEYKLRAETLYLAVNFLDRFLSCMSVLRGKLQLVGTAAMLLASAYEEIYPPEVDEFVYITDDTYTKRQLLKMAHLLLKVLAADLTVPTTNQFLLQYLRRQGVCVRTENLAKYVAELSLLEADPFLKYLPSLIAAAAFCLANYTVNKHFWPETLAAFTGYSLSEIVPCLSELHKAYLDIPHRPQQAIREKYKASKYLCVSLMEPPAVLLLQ
Change,target,assay,test system,conditions,how to read,measurement,value
K4F,"CCNA1, cyclin fold, Cln2 fusion (human)","yeast growth competition, sequencing",yeast,strong parent motif,"baseline: not given, higher = stronger binding",normalised enrichment score,-0.4
